Measurements gathered from unrelated publications.
Compare with care: the assays were run in different laboratories. ± marks the error that the study gave.
GLP1R: Glucagon-like peptide 1 receptor (GLP1R, Homo sapiens, UniProt P43220)
NMUR2: Neuromedin-U receptor 2 (NMUR2, Homo sapiens, UniProt Q9GZQ4)
AGTR1: Type-1 angiotensin II receptor (AGTR1, Homo sapiens, UniProt P30556)
GIPR: Gastric inhibitory polypeptide receptor (GIPR, Homo sapiens, UniProt P48546)

| SMILES | target | assay | test system | conditions | scale | Emax |
| --- | --- | --- | --- | --- | --- | --- |
| COc1ccc(CNc2nc(-c3ccc(OC)cc3)cc(C(F)(F)F)n2)cc1 | GLP1R | cAMP accumulation, positive allosteric modulator | HEK-293T overexpressing GLP1R | together with: EC20 GLP-1 |  | 31 ± 9.2% |
| CC(C)C[C@H](NC(=O)[C@H](Cc1ccccc1)NC(=O)CCCCCNC(=O)[C@@H](N)CS)C(=O)N[C@@H](Cc1ccccc1)C(=O)N[C@@H](CCCNC(=N)N)C(=O)N1Cc2ccccc2C[C@H]1C(=O)N[C@@H](CCCNC(=N)N)C(=O)N[C@@H](CC(N)=O)C(=O)NCCCCCC(=O)N[C@@H](CS)C(N)=O | NMUR1 (Homo sapiens, UniProt Q9HB89) | calcium signalling, agonist | HEK293 expressing receptor | 10 µM | baseline: human NmU | 61 ± 12.7% |
| CN1CCN(CC(=O)N2N=C3/C(=C/c4ccccc4)CCCC3C2c2ccccc2)CC1 (mixture of isomers) | ALOX15 (Homo sapiens, UniProt P16050) | enzyme activity, activator |  |  |  | 190% |
| COc1ccc(C(=O)c2c(C(=O)NCCCN(C)C)oc3ccc(Cl)cc3c2=O)cc1OC | GHSR (Homo sapiens, UniProt Q92847, A204E) | β-arrestin 2 recruitment, agonist, NanoBiT | HEK293T | no saturation reached |  | ~35% |
| CCCCCCCCCCCCCCCCN(CCCCCCCCCCCCCCCC)CCCCCC(=O)NC(C)(C)C(=O)N[C@@H](Cc1ccccc1)C(=O)N[C@@H](CC(C)C)C(=O)N[C@@H](Cc1ccccc1)C(=O)N[C@@H](CCCNC(=N)N)C(=O)N1CCC[C@H]1C(=O)N[C@@H](CCCNC(=N)N)C(=O)N[C@@H](CC(N)=O)C(N)=O | NMUR2 | calcium signaling, agonist | HEK293 expressing NMUR2 | 30 µM | baseline: human neuromedin U max | 28.4 ± 4.3% |
| COc1ccc(-c2cc(C(F)(F)F)nc(S(=O)(=O)CCCC(=O)Nc3ccc(F)cc3F)n2)cc1OC | GLP1R | cAMP, agonist |  |  |  | 77% |
| CCSC[C@H](NC(=O)[C@H](Cc1ccc(O)cc1)NC(=O)[C@@H](NC(=O)[C@H](CCCNC(=N)N)NC(=O)CNC)C(C)C)C(=O)N[C@@H](Cc1c[nH]cn1)C(=O)N1CCC[C@H]1C(=O)N[C@@H](CC(C)C)C(=O)O | AGTR1 | β-arrestin recruitment, agonist | CHO |  |  | 82% |
| COc1ccccc1-c1cc(C(F)(F)F)nc(S(=O)(=O)CCCC(=O)Nc2ccc(F)cc2F)n1 | GLP1R | cAMP accumulation, positive allosteric modulator | HEK-293T overexpressing GLP1R | together with: EC20 GLP-1 |  | 62 ± 43% |
| CCCCCCCCCCCCCCCCSCc1cc2cc(c1)CSC[C@H](N)C(=O)NCCCCCC(=O)N[C@@H](Cc1ccccc1)C(=O)N[C@@H](CC(C)C)C(=O)N[C@@H](Cc1ccccc1)C(=O)N[C@@H](CCCNC(=N)N)C(=O)N1CCC[C@H]1C(=O)N[C@@H](CCCNC(=N)N)C(=O)N[C@@H](CC(N)=O)C(=O)NCCCCCC(=O)N[C@H](C(N)=O)CSC2 | NMUR2 | calcium signalling | HEK293 |  | baseline: human neuromedin U | 53.1 ± 0.3% |
| CC[C@H](C)[C@H](NC(=O)[C@H](CO)NC(=O)[C@H](Cc1ccc(O)cc1)NC(=O)[C@H](CC(=O)O)NC(=O)[C@H](CO)NC(=O)[C@@H](NC(=O)[C@H](Cc1ccccc1)NC(=O)[C@@H](NC(=O)CNC(=O)[C@H](CCC(=O)O)NC(=O)[C@H](C)NC(=O)[C@@H](N)Cc1ccc(O)cc1)[C@@H](C)O)[C@@H](C)CC)C(=O)N[C@@H](C)C(=O)N[C@@H](CCSC)C(=O)N[C@@H](CC(=O)O)C(=O)N[C@@H](CCCCN)C(=O)N[C@H](C(=O)N[C@@H](CCCNC(=N)N)C(=O)N[C@@H](CCC(N)=O)C(=O)N[C@@H](CCC(N)=O)C(=O)N[C@@H](CC(=O)O)C(=O)N[C@@H](Cc1ccccc1)C(=O)N[C@H](C(=O)N[C@@H](CC(N)=O)C(=O)N[C@@H](Cc1c[nH]c2ccccc12)C(=O)N[C@@H](CC(C)C)C(=O)N[C@@H](CC(C)C)C(=O)N[C@@H](C)C(=O)N[C@@H](CCC(N)=O)C(=O)N[C@@H](CCCNC(=N)N)C(=O)NCC(=O)N[C@@H](CCCCN)C(=O)N[C@@H](CCCCN)C(=O)N[C@@H](CO)C(=O)N[C@@H](CC(=O)O)C(=O)N[C@@H](Cc1c[nH]c2ccccc12)C(=O)N[C@@H](CCCCN)C(=O)N[C@@H](Cc1c[nH]cn1)C(=O)N[C@@H](CC(N)=O)C(=O)N[C@H](C(=O)N[C@H](C(=O)N[C@@H](CCC(N)=O)C(=O)O)[C@@H](C)O)[C@@H](C)CC)C(C)C)[C@@H](C)CC | GIPR | cAMP, agonist | COS-7 |  |  | 99% |
| COc1ccc(-c2cc(C(F)(F)F)nc(NCc3ccc(F)cc3)n2)cc1OC | GLP1R | cAMP accumulation, positive allosteric modulator | HEK-293T overexpressing GLP1R | together with: EC20 GLP-1 |  | 53 ± 16% |
| CC[C@H](C)[C@H](NC(=O)[C@H](CO)NC(=O)[C@H](Cc1ccc(O)cc1)NC(=O)[C@H](CC(=O)O)NC(=O)[C@H](CO)NC(=O)[C@@H](NC(=O)[C@H](Cc1ccccc1)NC(=O)[C@@H](NC(=O)CNC(=O)[C@@H]1CCCN1C(=O)[C@H](C)NC(=O)[C@@H](N)Cc1ccc(O)cc1)[C@@H](C)O)[C@@H](C)CC)C(=O)N[C@@H](C)C(=O)N[C@@H](CCSC)C(=O)N[C@@H](CC(=O)O)C(=O)N[C@@H](CCCCN)C(=O)N[C@H](C(=O)N[C@@H](Cc1c[nH]cn1)C(=O)N[C@@H](CCC(N)=O)C(=O)N[C@@H](CCC(N)=O)C(=O)N[C@@H](CC(=O)O)C(=O)N[C@@H](Cc1ccccc1)C(=O)N[C@H](C(=O)N[C@@H](CC(N)=O)C(=O)N[C@@H](Cc1c[nH]c2ccccc12)C(=O)N[C@@H](CC(C)C)C(=O)N[C@@H](CC(C)C)C(=O)N[C@@H](C)C(=O)N[C@@H](CCC(N)=O)C(=O)N[C@@H](CCCCN)C(=O)NCC(=O)N[C@@H](CCCCN)C(=O)N[C@@H](CCCCN)C(=O)N[C@@H](CC(N)=O)C(=O)N[C@@H](CC(=O)O)C(=O)N[C@@H](Cc1c[nH]c2ccccc12)C(=O)N[C@@H](CCCCN)C(=O)N[C@@H](Cc1c[nH]cn1)C(=O)N[C@@H](CC(N)=O)C(=O)N[C@H](C(=O)N[C@H](C(=O)N[C@@H](CCC(N)=O)C(=O)O)[C@@H](C)O)[C@@H](C)CC)C(C)C)[C@@H](C)CC | GIPR | cAMP, agonist | COS-7 |  |  | 90% |
| Cn1ccc2c(N3CCN(CCCCOc4ccc5c(c4)NC(=O)CC5)CC3)cccc21 | DRD2 (Homo sapiens, UniProt P14416) | β-arrestin recruitment, agonist |  |  |  | 36% |
| Cc1cc(C)c2sc(NC(=O)C3CCN(S(=O)(=O)c4ccc(F)cc4)CC3)nc2c1 | Napepld (Mus musculus, UniProt Q8BH82) | enzyme activity, activator | RAW264.7 | together with: PED-A1 substrate | baseline: vehicle | 1.6 fold |
| COc1ccc(-c2cc(C(F)(F)F)nc(S(=O)(=O)CCCC(=O)Nc3ccccc3F)n2)cc1OC | GLP1R | cAMP, agonist |  |  |  | 61% |
| CNCC(=O)N[C@@H](CCCNC(=N)N)C(=O)N[C@H](C(=O)N[C@@H](Cc1ccc(O)cc1)C(=O)N[C@@H](CCSC)C(=O)N[C@@H](Cc1c[nH]cn1)C(=O)N1CCC[C@H]1C(=O)N[C@@H](CC(C)C)C(=O)O)C(C)C | AGTR1 | β-arrestin recruitment, agonist | CHO |  |  | 76% |
| Cc1cc(Br)cnc1OCCCNc1n[s+]([O-])nc1NCc1ccc[n+]([O-])c1 (centres unmarked) | GPR132 (Homo sapiens, UniProt Q9UNW8) | agonist |  |  |  | 99 ± 3% |

Repeated from above:
| SMILES | target | assay | test system | conditions | scale | Emax |
| --- | --- | --- | --- | --- | --- | --- |
| Cc1cc(Br)cnc1OCCCNc1n[s+]([O-])nc1NCc1ccc[n+]([O-])c1 (centres unmarked) | GPR132 (Homo sapiens, UniProt Q9UNW8) | agonist |  |  |  | 99 ± 3% |
